# Assay results of several laboratories.
# A part holds a random share of what one study measured.
# UniProt Q15569, sequence (whole entry, looked up): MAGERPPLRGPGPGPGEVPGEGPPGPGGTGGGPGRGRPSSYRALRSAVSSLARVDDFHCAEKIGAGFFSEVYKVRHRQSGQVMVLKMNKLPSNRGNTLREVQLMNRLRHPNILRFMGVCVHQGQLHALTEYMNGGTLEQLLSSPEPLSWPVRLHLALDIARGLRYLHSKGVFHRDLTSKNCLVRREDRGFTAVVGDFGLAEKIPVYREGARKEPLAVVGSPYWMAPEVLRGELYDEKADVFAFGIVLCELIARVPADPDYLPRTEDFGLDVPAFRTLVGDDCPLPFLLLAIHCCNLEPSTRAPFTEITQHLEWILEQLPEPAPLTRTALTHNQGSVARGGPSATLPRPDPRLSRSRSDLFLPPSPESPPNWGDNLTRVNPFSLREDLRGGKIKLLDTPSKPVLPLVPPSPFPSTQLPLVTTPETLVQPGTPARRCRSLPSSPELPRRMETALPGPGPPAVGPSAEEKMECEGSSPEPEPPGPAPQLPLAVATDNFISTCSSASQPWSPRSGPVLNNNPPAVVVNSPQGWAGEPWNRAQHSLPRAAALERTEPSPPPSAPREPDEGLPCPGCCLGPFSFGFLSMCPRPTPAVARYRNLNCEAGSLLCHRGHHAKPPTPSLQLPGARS
# UniProt P20794, sequence (whole entry, looked up): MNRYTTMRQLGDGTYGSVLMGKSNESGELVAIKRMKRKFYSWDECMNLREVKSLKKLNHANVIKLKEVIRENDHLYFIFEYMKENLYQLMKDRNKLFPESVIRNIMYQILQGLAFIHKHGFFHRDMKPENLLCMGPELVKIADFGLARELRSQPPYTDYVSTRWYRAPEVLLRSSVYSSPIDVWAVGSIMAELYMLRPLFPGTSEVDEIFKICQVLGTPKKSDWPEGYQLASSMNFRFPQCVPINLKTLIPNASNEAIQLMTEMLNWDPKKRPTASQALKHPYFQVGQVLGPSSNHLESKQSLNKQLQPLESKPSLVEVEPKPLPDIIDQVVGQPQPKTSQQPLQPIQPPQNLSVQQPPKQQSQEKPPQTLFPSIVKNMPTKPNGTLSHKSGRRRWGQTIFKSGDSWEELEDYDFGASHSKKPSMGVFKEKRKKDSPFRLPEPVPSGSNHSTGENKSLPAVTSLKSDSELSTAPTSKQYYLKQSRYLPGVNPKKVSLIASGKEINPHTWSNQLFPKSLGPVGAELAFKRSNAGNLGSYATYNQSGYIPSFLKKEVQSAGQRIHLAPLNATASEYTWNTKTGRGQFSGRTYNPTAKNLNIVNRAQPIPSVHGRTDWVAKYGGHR
# UniProt Q9P0L2, sequence (whole entry, looked up): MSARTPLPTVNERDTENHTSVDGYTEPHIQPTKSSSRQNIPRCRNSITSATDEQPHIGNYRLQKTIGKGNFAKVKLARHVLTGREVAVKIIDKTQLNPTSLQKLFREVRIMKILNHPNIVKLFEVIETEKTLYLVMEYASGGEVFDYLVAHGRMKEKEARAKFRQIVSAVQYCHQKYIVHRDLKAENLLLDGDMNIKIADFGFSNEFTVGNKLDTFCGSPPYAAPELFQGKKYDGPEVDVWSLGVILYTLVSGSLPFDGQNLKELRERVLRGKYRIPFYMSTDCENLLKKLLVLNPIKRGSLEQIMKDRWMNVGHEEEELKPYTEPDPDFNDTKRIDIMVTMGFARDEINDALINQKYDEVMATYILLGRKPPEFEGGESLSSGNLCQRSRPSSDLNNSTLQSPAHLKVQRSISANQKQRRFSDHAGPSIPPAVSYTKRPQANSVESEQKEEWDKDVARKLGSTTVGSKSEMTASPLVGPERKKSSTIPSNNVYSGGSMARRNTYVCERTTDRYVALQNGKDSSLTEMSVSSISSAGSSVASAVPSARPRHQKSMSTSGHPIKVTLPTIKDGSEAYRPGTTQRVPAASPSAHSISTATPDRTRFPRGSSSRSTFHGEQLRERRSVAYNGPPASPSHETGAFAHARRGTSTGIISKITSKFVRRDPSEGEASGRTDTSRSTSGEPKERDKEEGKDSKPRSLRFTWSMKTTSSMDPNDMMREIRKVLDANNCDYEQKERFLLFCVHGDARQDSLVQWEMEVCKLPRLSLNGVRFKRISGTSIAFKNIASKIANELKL
# UniProt Q8IU85, sequence (whole entry, looked up): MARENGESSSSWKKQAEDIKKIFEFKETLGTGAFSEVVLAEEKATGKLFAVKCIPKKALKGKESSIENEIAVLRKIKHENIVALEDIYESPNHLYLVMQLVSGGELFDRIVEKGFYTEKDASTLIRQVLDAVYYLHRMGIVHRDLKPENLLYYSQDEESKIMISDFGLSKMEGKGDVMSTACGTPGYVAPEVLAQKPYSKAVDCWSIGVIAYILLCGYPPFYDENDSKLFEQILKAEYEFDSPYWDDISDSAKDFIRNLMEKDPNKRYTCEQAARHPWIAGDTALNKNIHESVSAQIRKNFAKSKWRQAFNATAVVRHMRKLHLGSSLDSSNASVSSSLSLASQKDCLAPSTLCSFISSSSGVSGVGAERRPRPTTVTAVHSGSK
# UniProt Q9NY57, sequence (whole entry, looked up): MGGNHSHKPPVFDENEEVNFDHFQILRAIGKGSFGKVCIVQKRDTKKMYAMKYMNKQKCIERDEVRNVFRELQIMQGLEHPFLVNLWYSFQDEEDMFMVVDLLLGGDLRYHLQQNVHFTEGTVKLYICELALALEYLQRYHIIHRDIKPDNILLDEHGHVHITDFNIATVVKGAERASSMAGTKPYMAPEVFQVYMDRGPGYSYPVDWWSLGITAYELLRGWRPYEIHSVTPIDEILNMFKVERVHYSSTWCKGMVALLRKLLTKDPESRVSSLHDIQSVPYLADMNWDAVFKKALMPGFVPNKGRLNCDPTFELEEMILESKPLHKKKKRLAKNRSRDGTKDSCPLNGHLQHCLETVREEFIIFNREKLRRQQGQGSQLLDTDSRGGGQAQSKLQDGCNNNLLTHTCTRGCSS
# UniProt Q92772, sequence (whole entry, looked up): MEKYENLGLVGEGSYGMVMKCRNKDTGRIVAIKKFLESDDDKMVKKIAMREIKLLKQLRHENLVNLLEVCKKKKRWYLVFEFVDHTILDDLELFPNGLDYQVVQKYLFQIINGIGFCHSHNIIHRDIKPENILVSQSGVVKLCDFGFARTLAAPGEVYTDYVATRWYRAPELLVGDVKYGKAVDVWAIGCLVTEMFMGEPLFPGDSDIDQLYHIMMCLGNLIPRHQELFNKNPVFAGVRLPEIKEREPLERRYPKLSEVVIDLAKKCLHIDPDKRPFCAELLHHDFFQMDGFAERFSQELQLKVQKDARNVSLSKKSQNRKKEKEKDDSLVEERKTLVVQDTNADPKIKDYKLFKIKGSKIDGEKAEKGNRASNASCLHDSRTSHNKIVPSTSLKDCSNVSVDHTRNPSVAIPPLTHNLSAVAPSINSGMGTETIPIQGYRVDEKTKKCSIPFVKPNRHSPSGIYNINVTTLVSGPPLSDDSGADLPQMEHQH
# UniProt Q96NX5, sequence (whole entry, looked up): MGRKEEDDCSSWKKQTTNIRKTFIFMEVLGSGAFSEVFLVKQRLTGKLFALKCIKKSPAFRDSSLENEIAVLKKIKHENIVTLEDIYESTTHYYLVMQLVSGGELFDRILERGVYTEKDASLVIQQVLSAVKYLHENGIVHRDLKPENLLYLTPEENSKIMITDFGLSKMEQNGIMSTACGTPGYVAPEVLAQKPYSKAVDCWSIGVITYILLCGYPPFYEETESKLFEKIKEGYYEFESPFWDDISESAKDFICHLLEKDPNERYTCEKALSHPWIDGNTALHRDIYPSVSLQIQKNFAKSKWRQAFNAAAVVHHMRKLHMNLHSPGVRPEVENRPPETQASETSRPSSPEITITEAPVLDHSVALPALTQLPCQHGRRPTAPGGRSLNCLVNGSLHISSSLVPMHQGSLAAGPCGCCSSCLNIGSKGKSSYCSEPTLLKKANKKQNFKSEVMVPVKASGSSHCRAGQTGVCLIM
# UniProt P28482, sequence (whole entry, looked up): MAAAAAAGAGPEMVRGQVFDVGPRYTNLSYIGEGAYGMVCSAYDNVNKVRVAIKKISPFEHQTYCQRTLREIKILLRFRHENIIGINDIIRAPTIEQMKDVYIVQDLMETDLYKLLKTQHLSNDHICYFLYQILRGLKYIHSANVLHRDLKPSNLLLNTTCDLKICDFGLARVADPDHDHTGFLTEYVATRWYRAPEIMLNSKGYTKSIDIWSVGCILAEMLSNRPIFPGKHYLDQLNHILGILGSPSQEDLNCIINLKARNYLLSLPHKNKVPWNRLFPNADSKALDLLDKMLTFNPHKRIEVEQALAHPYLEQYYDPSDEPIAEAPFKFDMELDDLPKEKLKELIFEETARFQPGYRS

# Set 1
# Compound: CC(C)n1cnc(-c2ccc(F)cc2)c1-c1ncc(C(=O)Nc2ccc(N3CCN(C)CC3)cc2)[nH]1
technique,item,host,route,dose,setting,patients with adverse event [%]
Phase 2a trial,blood creatinine increased,"human, idiopathic pulmonary fibrosis",,60 mg once daily,grade 3,0
Phase 2a trial,blood fibrinogen increased,"human, idiopathic pulmonary fibrosis",,60 mg once daily,grade 4,0
Phase 2a trial,hepatic steatosis,"human, idiopathic pulmonary fibrosis",,60 mg once daily,grade 3,0
Phase 2a trial,hepatobiliary disorders,"human, idiopathic pulmonary fibrosis",,60 mg once daily,grade 2,0
Phase 2a trial,blood lactate dehydrogenase increased,"human, idiopathic pulmonary fibrosis",,60 mg once daily,grade 5,0
Phase 2a trial,hypoalbuminaemia,"human, idiopathic pulmonary fibrosis",,30 mg once daily,grade 3,0
Phase 2a trial,eosinophilia myalgia syndrome,"human, idiopathic pulmonary fibrosis",,30 mg once daily,grade 5,0
Phase 2a trial,blood pressure increased,"human, idiopathic pulmonary fibrosis",,30 mg once daily,grade 2,0
Phase 2a trial,blood pressure increased,"human, idiopathic pulmonary fibrosis",,60 mg once daily,grade 3,0
Phase 2a trial,blood glucose increased,"human, idiopathic pulmonary fibrosis",,60 mg once daily,grade 4,0
Phase 2a trial,haemoptysis,"human, idiopathic pulmonary fibrosis",,all compound arms,grade 3,0
,"abnormal liver function test, grade 2",idiopathic pulmonary fibrosis patients,oral,30 mg once daily,,0
Phase 2a trial,hyperuricaemia,"human, idiopathic pulmonary fibrosis",,60 mg once daily,grade 3,0
Phase 2a trial,hepatic steatosis,"human, idiopathic pulmonary fibrosis",,30 mg once daily,grade 3,0
Phase 2a trial,haemoptysis,"human, idiopathic pulmonary fibrosis",,30 mg once daily,grade 4,0
Phase 2a trial,blood fibrinogen increased,"human, idiopathic pulmonary fibrosis",,30 mg once daily,grade 5,0
Phase 2a trial,hypoalbuminaemia,"human, idiopathic pulmonary fibrosis",,all compound arms total,grade 2,0
Phase 2a trial,hyperuricaemia,"human, idiopathic pulmonary fibrosis",,all compound arms total,grade 5,0
Phase 2a trial,"respiratory, thoracic, mediastinal disorders","human, idiopathic pulmonary fibrosis",,all compound arms,grade 4,0
,"skin papilloma, maximum grade 3",idiopathic pulmonary fibrosis patients,,dose not given,all compound arms pooled,0
Phase 2a trial,haemoptysis,"human, idiopathic pulmonary fibrosis",,30 mg once daily,grade 1,0

# Set 2
# Target: Tyrosine-protein kinase SYK (SYK, Homo sapiens, UniProt P43405)
# Observed: enzyme activity
# Mode: inhibitor
# Concentration: 0.5 µM
# Reference: control
Compound,remaining activity
COc1cc(Nc2c(C#N)cnc3cc(OCCCN4CCN(C)CC4)c(OC)cc23)c(Cl)cc1Cl,21.1%
CCCC(=O)Oc1ccc2[nH]c(C(=O)c3cc4ccccc4[nH]3)cc2c1,93.9%
Fc1ccc(-c2nc3n(c2-c2ccncc2)CCS3)cc1,98.3%
Cc1cncc2cccc(S(=O)(=O)N3CCCN(C(=O)CN)C[C@@H]3C)c12,100%
CC[n+]1c(/C=C/N(C)c2ccccc2)n(-c2ccccc2)c2ccc(-c3nc4ccccc4s3)cc21,104%
CC(C)(C)n1nc(Cc2cccc3ccccc23)c2c(N)ncnc21,95.7%
Cc1ccc(NC2=CC(=O)c3sc(C)nc3C2=O)cc1,97.9%
CC(=O)c1ccc(N2CCOCC2)cc1O,92.6%
CSc1nc(-c2ccnc(N[C@@H](C)c3ccccc3)c2)c(-c2ccc(F)cc2)[nH]1 (racemic),96.8%
Nc1nc(Nc2ccc(S(N)(=O)=O)cc2)nn1C(=O)c1c(F)cccc1F,61.6%
COc1ccc(S(=O)(=O)N(CCO)c2ccccc2CN(C)CC=Cc2ccc(Cl)cc2)cc1,101%
Cc1cc(Nc2nc(-c3ccccc3)nc3ccccc23)n[nH]1,61.9%
O=C1Cc2c([nH]c3ccc([N+](=O)[O-])cc23)-c2ccccc2N1,53.9%
Nc1nccc(-c2c(-c3ccc(F)cc3)ncn2C2CCNCC2)n1,98%
CC#CC(=O)Nc1cc2c(Nc3ccc(F)c(Cl)c3)ncnc2cn1,95.4%
Oc1ccc(Nc2nc(-c3ccc(Cl)cc3)cs2)cc1,93.8%
NC(=O)c1ccc(N(C(N)=O)c2c(F)cccc2F)nc1-c1ccc(F)cc1F,110%
N#CC(=C(N)Sc1ccc(N)cc1)c1ccccc1C(F)(F)F,99.3%
O=C1NC(=O)C(c2c[nH]c3ccccc23)=C1c1c[nH]c2ccccc12,103%
CCc1[nH]c(-c2ccc(OC)cc2)nc1-c1ccncc1,98.7%
Nc1ncnc2c1cnn2-c1ccccc1,96%
O=S(=O)(NCCNC/C=C/c1ccc(Br)cc1)c1cccc2cnccc12,77.7%

# Set 3
# Target: Calcium/calmodulin-dependent protein kinase type II subunit alpha (CAMK2A, Homo sapiens, UniProt Q9UQM7)
# UniProt Q9UQM7, sequence (whole entry, looked up): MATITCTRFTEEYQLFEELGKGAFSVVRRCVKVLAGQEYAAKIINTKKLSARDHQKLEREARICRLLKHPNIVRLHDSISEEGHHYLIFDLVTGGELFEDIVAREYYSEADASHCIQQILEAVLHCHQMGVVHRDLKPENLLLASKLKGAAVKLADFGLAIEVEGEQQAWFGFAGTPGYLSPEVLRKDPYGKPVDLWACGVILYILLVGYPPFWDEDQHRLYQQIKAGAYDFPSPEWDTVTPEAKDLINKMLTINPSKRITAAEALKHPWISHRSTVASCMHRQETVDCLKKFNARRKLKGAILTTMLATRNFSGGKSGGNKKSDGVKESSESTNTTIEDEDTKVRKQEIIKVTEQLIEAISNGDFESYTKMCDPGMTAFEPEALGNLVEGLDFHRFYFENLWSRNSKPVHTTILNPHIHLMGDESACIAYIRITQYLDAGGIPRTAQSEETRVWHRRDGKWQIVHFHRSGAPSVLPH
# Observed: enzyme activity
# Mode: inhibitor
# Concentration: 10 µM
Compound,inhibition [%]
CO/N=C(\C(=O)N[C@@H]1C(=O)N2C(C(=O)O)=C(CSC(=O)c3ccco3)CS[C@H]12)c1csc(N)n1,-5
Nc1ncnc2c1ncn2[C@@H]1O[C@H](CO)C[C@H]1O,-20
CC(C)c1nc(CN(C)C(=O)N[C@H](C(=O)N[C@@H](Cc2ccccc2)C[C@H](O)[C@H](Cc2ccccc2)NC(=O)OCc2cncs2)C(C)C)cs1,-14
O=c1[nH]cnc2nc[nH]c12,50
Nc1ccc(S(=O)(=O)Nc2ccnn2-c2ccccc2)cc1,-4
O=C(O)CCCC[C@@H]1SC[C@@H]2NC(=O)N[C@@H]21,1
CCCCC(CC)CCC(CC(C)C)OS(=O)(=O)O (stereo not shown),11
O=C(/C=C/c1ccc(O)c2c1[C@H](C(=O)O)[C@@H](c1ccc(O)c(O)c1)O2)O[C@H](Cc1ccc(O)c(O)c1)C(=O)O,1
COc1ccc(CCO[C@@H]2O[C@H](CO[C@@H]3O[C@H](CO)[C@H](O)[C@H](O)[C@H]3O)[C@@H](OC(=O)/C=C/c3ccc(O)c(OC)c3)[C@H](O[C@@H]3O[C@@H](C)[C@H](O)[C@@H](O)[C@H]3O)[C@H]2O)cc1O,-6
CC(C)=CCC[C@@H](C)CCO,-21
O=C(O)CNC(=O)c1ncc(-c2cccc(Cl)c2)cc1O,-12
CC(=O)NCCCCN,-22

# Set 4
# SMILES: CN(C)c1ncnc(-c2ccc3nc(Nc4cc(CN5CCN(C(=O)CC(F)(F)F)CC5)ccn4)[nH]c3c2)c1Cl
# Concentration: 1 µM
target,observed,technique,remaining binding [%]
"NUAK1 (Homo sapiens, UniProt O60285)",cell-free assay,competition with immobilised ligand,100
"MUSK (Homo sapiens, UniProt O15146)",cell-free assay,competition with immobilised ligand,100
"STK32B (Homo sapiens, UniProt Q9NY57)",cell-free assay,competition with immobilised ligand,100
"KIT (Homo sapiens, UniProt P10721, V559D)",cell-free assay,competition with immobilised ligand,75
"WNK1 (Homo sapiens, UniProt Q9H4A3)",cell-free assay,competition with immobilised ligand,86
"MAK (Homo sapiens, UniProt P20794)",cell-free assay,competition with immobilised ligand,100
"MAP3K12 (Homo sapiens, UniProt Q12852)",cell-free assay,competition with immobilised ligand,64
"RIOK1 (Homo sapiens, UniProt Q9BRS2)",cell-free assay,competition with immobilised ligand,100
"MAPK1 (Homo sapiens, UniProt P28482)",cell-free assay,competition with immobilised ligand,100
"MARK1 (Homo sapiens, UniProt Q9P0L2)",cell-free assay,competition with immobilised ligand,100
"CAMK1G (Homo sapiens, UniProt Q96NX5)",cell-free assay,competition with immobilised ligand,100
"EIF2AK1 (Homo sapiens, UniProt Q9BQI3)",cell-free assay,competition with immobilised ligand,54
"CAMK1D (Homo sapiens, UniProt Q8IU85)",cell-free assay,competition with immobilised ligand,100
"CDKL2 (Homo sapiens, UniProt Q92772)",cell-free assay,competition with immobilised ligand,100
"Ribosomal protein S6 kinase alpha-6, N-terminal kinase domain (RPS6KA6, Homo sapiens, UniProt Q9UK32)",cell-free assay,competition with immobilised ligand,84
"DYRK2 (Homo sapiens, UniProt Q92630)",cell-free assay,competition with immobilised ligand,81
"CDC42BPG (Homo sapiens, UniProt Q6DT37)",,competition binding,100
"EPHA4 (Homo sapiens, UniProt P54764)",cell-free assay,competition with immobilised ligand,92
"PIP5K1C (Homo sapiens, UniProt O60331)",cell-free assay,competition with immobilised ligand,100
"GRK1 (Homo sapiens, UniProt Q15835)",cell-free assay,competition with immobilised ligand,90
"FLT3 (Homo sapiens, UniProt P36888, F691L/ITD)",cell-free assay,competition with immobilised ligand,35
"DCLK1 (Homo sapiens, UniProt O15075)",cell-free assay,competition with immobilised ligand,92
"TESK1 (Homo sapiens, UniProt Q15569)",cell-free assay,competition with immobilised ligand,78
"PIP4K2C (Homo sapiens, UniProt Q8TBX8)",cell-free assay,competition with immobilised ligand,95

# For quick reference, copied from above (set 4):
target,observed,technique,remaining binding [%]
"GRK1 (Homo sapiens, UniProt Q15835)",cell-free assay,competition with immobilised ligand,90
"KIT (Homo sapiens, UniProt P10721, V559D)",cell-free assay,competition with immobilised ligand,75
"MAP3K12 (Homo sapiens, UniProt Q12852)",cell-free assay,competition with immobilised ligand,64
"STK32B (Homo sapiens, UniProt Q9NY57)",cell-free assay,competition with immobilised ligand,100
"NUAK1 (Homo sapiens, UniProt O60285)",cell-free assay,competition with immobilised ligand,100
"EIF2AK1 (Homo sapiens, UniProt Q9BQI3)",cell-free assay,competition with immobilised ligand,54
"DCLK1 (Homo sapiens, UniProt O15075)",cell-free assay,competition with immobilised ligand,92
"CDC42BPG (Homo sapiens, UniProt Q6DT37)",,competition binding,100
"MAPK1 (Homo sapiens, UniProt P28482)",cell-free assay,competition with immobilised ligand,100
"CAMK1G (Homo sapiens, UniProt Q96NX5)",cell-free assay,competition with immobilised ligand,100
"Ribosomal protein S6 kinase alpha-6, N-terminal kinase domain (RPS6KA6, Homo sapiens, UniProt Q9UK32)",cell-free assay,competition with immobilised ligand,84
"PIP5K1C (Homo sapiens, UniProt O60331)",cell-free assay,competition with immobilised ligand,100
"MAK (Homo sapiens, UniProt P20794)",cell-free assay,competition with immobilised ligand,100
